Published values gathered from unrelated publications.
Every numbered part comes from another study and shows a few of its results, in no order. “And” joins repeats or separate records; there may be more than shown.
Chain of UniProt Q92630 (whole entry, looked up): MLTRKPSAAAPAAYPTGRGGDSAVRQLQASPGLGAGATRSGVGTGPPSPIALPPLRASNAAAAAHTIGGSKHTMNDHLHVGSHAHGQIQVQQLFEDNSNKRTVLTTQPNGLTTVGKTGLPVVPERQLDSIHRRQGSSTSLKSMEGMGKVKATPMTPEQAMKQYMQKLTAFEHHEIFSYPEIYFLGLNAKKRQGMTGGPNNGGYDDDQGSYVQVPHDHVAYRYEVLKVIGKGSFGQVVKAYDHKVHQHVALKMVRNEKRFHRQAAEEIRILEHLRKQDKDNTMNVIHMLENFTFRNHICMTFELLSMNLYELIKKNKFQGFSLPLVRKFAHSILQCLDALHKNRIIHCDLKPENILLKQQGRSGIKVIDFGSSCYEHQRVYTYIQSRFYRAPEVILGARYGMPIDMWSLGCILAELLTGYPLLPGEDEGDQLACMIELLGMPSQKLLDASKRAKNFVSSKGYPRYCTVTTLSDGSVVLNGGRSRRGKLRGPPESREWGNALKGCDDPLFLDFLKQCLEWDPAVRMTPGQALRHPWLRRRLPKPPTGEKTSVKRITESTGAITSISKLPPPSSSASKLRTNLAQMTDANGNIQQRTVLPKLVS
Chain of UniProt P08631 (whole entry, looked up): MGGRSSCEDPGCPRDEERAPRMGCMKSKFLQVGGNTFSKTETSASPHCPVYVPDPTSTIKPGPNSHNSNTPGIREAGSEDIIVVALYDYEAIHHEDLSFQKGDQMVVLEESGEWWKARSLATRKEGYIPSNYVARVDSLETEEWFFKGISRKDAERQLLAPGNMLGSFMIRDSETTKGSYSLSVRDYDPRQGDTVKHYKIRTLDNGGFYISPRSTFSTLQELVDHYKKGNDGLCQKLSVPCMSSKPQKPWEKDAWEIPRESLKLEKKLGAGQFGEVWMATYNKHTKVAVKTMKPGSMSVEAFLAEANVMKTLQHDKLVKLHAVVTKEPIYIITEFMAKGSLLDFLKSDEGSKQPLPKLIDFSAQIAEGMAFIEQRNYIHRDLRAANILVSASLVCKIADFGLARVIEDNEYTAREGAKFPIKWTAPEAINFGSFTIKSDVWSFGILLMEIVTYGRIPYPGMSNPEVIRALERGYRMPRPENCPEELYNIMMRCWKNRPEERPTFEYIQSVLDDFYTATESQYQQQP
Chain of UniProt Q6XUX3 (whole entry, looked up): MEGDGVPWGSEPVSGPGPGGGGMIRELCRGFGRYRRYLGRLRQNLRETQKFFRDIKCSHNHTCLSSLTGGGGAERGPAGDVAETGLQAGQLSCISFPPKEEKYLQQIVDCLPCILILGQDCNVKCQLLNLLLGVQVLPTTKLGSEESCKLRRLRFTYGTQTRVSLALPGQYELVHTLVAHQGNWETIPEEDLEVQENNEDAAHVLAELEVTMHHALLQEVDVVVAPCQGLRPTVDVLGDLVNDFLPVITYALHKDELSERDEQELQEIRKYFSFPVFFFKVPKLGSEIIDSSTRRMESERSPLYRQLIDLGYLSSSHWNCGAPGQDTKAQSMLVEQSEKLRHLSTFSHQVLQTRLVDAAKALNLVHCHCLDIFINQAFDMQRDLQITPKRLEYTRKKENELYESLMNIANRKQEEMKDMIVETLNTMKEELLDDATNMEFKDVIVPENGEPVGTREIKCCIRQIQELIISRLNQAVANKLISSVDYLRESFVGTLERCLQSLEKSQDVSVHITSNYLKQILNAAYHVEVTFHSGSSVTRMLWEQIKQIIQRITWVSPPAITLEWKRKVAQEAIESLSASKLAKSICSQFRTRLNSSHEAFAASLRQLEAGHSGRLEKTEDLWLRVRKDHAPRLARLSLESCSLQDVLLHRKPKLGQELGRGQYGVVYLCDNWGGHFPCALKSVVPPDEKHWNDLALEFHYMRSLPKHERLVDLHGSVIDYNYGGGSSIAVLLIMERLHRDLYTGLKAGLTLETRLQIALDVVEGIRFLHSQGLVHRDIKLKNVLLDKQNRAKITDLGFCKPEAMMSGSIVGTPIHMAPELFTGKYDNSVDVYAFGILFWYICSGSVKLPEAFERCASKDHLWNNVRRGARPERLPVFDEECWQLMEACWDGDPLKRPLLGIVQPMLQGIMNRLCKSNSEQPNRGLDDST
Chain of UniProt P21802 (whole entry, looked up): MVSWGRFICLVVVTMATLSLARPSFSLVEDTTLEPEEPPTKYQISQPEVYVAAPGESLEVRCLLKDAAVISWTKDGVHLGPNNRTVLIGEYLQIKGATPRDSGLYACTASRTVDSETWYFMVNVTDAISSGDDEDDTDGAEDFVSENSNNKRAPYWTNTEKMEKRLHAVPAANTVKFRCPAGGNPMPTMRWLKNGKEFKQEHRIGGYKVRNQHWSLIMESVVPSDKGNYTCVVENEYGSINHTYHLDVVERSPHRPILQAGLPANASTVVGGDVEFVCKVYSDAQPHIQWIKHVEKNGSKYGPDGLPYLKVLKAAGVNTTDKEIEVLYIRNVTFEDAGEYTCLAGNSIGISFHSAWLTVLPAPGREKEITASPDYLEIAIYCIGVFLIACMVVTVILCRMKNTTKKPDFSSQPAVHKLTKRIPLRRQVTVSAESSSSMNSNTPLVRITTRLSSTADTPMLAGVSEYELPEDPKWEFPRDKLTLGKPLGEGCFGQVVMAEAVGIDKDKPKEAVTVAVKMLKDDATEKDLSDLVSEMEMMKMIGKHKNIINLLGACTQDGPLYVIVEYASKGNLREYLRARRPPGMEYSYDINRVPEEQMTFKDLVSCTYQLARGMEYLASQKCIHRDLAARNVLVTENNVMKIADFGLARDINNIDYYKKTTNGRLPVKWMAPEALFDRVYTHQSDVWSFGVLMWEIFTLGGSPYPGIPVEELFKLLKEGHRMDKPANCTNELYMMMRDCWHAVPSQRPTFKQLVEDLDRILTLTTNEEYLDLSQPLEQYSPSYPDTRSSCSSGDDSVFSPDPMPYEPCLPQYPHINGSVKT
Chain of UniProt P14616 (whole entry, looked up): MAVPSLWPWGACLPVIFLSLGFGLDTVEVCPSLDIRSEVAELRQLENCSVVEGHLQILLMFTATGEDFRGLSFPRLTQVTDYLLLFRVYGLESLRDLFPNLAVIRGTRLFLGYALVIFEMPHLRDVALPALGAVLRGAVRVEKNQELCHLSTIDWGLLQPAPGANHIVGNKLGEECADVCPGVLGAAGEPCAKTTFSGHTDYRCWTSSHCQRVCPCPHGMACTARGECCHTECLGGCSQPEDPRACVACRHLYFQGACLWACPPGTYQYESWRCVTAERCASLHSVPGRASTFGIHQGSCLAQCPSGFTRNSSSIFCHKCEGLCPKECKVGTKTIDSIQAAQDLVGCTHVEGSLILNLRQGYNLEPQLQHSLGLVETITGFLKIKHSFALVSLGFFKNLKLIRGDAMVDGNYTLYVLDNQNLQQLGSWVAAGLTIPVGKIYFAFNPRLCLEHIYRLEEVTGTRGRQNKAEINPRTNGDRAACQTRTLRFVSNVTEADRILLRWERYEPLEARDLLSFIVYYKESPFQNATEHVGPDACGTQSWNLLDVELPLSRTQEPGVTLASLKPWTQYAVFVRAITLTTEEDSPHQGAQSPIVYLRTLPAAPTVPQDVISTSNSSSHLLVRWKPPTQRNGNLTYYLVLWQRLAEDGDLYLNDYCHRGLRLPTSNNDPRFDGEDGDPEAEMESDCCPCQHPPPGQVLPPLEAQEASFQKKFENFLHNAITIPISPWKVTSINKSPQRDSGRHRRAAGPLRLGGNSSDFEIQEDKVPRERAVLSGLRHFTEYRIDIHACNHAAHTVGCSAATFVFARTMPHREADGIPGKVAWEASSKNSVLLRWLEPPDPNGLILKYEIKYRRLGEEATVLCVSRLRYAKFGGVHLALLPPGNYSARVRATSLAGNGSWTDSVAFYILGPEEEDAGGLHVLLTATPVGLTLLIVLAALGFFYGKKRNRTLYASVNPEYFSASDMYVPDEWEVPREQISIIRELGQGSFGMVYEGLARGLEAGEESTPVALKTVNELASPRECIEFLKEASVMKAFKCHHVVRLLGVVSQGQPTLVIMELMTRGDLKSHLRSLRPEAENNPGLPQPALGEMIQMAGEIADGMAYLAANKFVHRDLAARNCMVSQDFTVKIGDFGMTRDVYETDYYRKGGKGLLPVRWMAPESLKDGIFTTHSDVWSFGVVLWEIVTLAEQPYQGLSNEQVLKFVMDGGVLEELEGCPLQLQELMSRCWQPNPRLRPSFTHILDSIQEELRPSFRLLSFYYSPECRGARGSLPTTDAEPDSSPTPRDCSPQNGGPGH

Set 1
Cell line: mouse MPNST tumor cells
Method: high-content immunofluorescence imaging
Refers to: nuclear SOX9
Tested at: 10 µM
Time: 12 h
Notes: mean of 2 replicates
Baseline: DMSO control
Direction: higher = more nuclear SOX9
SMILES | nuclear SOX9 intensity
CC/C(=C(/CC)c1ccc(O)cc1)c1ccc(O)cc1 | 124 % of DMSO
CC(=O)Nc1ccc(NC(=S)NC(=O)c2ccc(C(C)(C)C)cc2)cc1 | 106 % of DMSO
Nc1ccc(S(=O)(=O)Nc2nccs2)cc1 | 101 % of DMSO
CCOC(=O)C(C)(C)Oc1ccc(Cl)cc1 | 95 % of DMSO and 93 % of DMSO
CN1CCN(C(=O)c2cc3cc(Cl)ccc3[nH]2)CC1 | 125 % of DMSO
CN(c1ccccc1CNc1nc(Nc2ccc3c(c2)CC(=O)N3)ncc1C(F)(F)F)S(C)(=O)=O | 64.9 % of DMSO
Cc1ccc(-c2ccc(F)cc2COc2ccc(CCC(=O)O)cc2)cc1 | 108 % of DMSO

Set 2
Cell line: A-375
Tested at: 100 µM
Time: 18 h
SMILES | viability [%]
CC(C)OC(=O)C(C(=O)OC(C)C)=C1SC=CS1 | 13.6
CCOc1nc2cccc(C(=O)O)c2n1Cc1ccc(-c2ccccc2-c2nnn[nH]2)cc1 | 102
C#C[C@]1(OC(C)=O)CC[C@H]2[C@@H]3CCC4=C[C@@H](OC(C)=O)CC[C@@H]4[C@H]3CC[C@@]21C | 39.8
CC(S)C(=O)NCC(=O)O (stereo not shown) | 108
CCc1nc(N)nc(N)c1-c1ccc(Cl)cc1 | 67.3
O=C(O)c1cccnc1Nc1cccc(C(F)(F)F)c1 | 84.5
Cc1onc(-c2ccccc2)c1-c1ccc(S(N)(=O)=O)cc1 | 73.5

Set 3
Target: Alpha-1D adrenergic receptor (ADRA1D, Homo sapiens, UniProt P25100)
Chain of UniProt P25100 (whole entry, looked up): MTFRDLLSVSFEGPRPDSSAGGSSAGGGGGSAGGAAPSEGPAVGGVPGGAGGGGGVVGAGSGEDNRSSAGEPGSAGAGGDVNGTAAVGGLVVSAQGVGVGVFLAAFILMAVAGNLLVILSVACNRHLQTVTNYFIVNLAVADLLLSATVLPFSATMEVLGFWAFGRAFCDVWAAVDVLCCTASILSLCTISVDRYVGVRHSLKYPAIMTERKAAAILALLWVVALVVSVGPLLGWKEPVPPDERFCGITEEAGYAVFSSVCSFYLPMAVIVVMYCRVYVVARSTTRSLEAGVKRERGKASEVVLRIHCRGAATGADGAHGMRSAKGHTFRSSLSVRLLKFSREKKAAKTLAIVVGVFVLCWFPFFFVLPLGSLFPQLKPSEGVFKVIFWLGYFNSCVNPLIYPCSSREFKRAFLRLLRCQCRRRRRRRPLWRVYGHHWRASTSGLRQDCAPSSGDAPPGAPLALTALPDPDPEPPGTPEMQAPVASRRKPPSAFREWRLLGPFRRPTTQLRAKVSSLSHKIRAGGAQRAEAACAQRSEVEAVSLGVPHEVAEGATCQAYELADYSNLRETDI
Observed: binding
Method: radioligand binding
Tested at: 10 µM
SMILES | inhibition [%]
O=C1c2ccc(Nc3ccc(F)cc3F)cc2CCc2ccc(OC[C@H](O)CO)cc21 | 19.5
CCCOc1ccc([C@H]2[C@H](C(=O)O)[C@@H](c3ccc4c(c3)OCO4)CN2CC(=O)Nc2c(CC)cccc2CC)cc1 | -1.79
COc1nc2ccc([C@@](O)(c3ccccc3)C3CCN(C(C)=O)CC3)cc2c(Cl)c1Cc1ccc(-n2cccn2)cc1 | 6.64
CCOCCn1cc(C(=O)Nc2ccc(-n3nc(-c4cccnc4)cc3C(F)(F)F)cn2)ccc1=O | -14.4
C[C@H](NC(=O)c1cnc2n1[C@](C)(Cc1ccc(C#N)cc1)C(=O)N2c1cc(Cl)c(F)c(Cl)c1)C(=O)NC1(c2ccccn2)CC1 | -18.5
O=C(Nc1cccnn1)N1CC(CC=Cc2cncc(Oc3ccc(C(F)(F)F)cn3)n2)C1 | -10.6

Set 4
SMILES: CC(=O)O/N=C1/C(c2c(O)[nH]c3cc(Br)ccc23)=Nc2ccccc21
Observed: enzyme activity
Mode: inhibitor
Tested at: 0.5 µM
Baseline: control
target | remaining activity [%]
Serine/threonine-protein kinase PLK1 (PLK1, Homo sapiens, UniProt P53350) | 105
Dual serine/threonine and tyrosine protein kinase (DSTYK, Homo sapiens, UniProt Q6XUX3) | 81.1
Dual specificity tyrosine-phosphorylation-regulated kinase 2 (DYRK2, Homo sapiens, UniProt Q92630) | 94.4
BDNF/NT-3 growth factors receptor (NTRK2, Homo sapiens, UniProt Q16620) | 38.4
Insulin receptor-related protein (INSRR, Homo sapiens, UniProt P14616) | 96.7
Serine/threonine-protein kinase D3 (PRKD3, Homo sapiens, UniProt O94806) | 84.9
Tyrosine-protein kinase HCK (HCK, Homo sapiens, UniProt P08631) | 43.1
Mitogen-activated protein kinase kinase kinase 9 (MAP3K9, Homo sapiens, UniProt P80192) | 51.5
Phosphorylase b kinase gamma catalytic chain, liver/testis isoform (PHKG2, Homo sapiens, UniProt P15735) | 96.6
Serine/threonine-protein kinase ULK1 (ULK1, Homo sapiens, UniProt O75385) | 95.6
RAF proto-oncogene serine/threonine-protein kinase (RAF1, Homo sapiens, UniProt P04049) | 100
Platelet-derived growth factor receptor beta (PDGFRB, Homo sapiens, UniProt P09619) | 51.6
Activin receptor type-1 (ACVR1, Homo sapiens, UniProt Q04771) | 102
Fibroblast growth factor receptor 2 (FGFR2, Homo sapiens, UniProt P21802) | 85.8
Mitogen-activated protein kinase kinase kinase kinase 5 (MAP4K5, Homo sapiens, UniProt Q9Y4K4) | 24.1
Serine/threonine-protein kinase TAO1 (TAOK1, Homo sapiens, UniProt Q7L7X3) | 126
Activated CDC42 kinase 1 (TNK2, Homo sapiens, UniProt Q07912) | 74.7
Serine/threonine-protein kinase Sgk3 (SGK3, Homo sapiens, UniProt Q96BR1) | 100
Serine/threonine-protein kinase VRK1 (VRK1, Homo sapiens, UniProt Q99986) | 80.7
Receptor-interacting serine/threonine-protein kinase 2 (RIPK2, Homo sapiens, UniProt O43353) | 108

For quick reference, copied from above (set 1):
SMILES | nuclear SOX9 intensity
CCOC(=O)C(C)(C)Oc1ccc(Cl)cc1 | 95 % of DMSO and 93 % of DMSO
CN1CCN(C(=O)c2cc3cc(Cl)ccc3[nH]2)CC1 | 125 % of DMSO
CN(c1ccccc1CNc1nc(Nc2ccc3c(c2)CC(=O)N3)ncc1C(F)(F)F)S(C)(=O)=O | 64.9 % of DMSO
Cc1ccc(-c2ccc(F)cc2COc2ccc(CCC(=O)O)cc2)cc1 | 108 % of DMSO
